Measurements of several laboratories.
Lines come from different studies, so protocols differ. Values joined by “and” are separate records of one study, mostly repeats; a detail may differ. ± gives the spread as reported.

SMILES | organism | assay | test system | setting | how to read | endpoint | value
C[N+]1=C2C(c3ccc(Cl)cc3)=[N+]([O-])c3ccccc3N2CCC1 | Prevotella spp. | bacterial growth | – | – | – | MIC90 | 8 µg/mL
CCc1nn(C)c2nc(-c3ccc(C(=O)O)cc3)nc(NCc3ccccc3)c12 | Cryptosporidium parvum | – | HCT-8 | EC50, 72 h | reference: DMSO control | parasite number | 93.8% and 74.4% and 90.8%
O=[N+]([O-])c1ccc(C2=[N+]([O-])c3ccccc3N3CCCN=C23)cc1 | Parabacteroides distasonis and Bacteroides spp. | bacterial growth | – | – | – | MIC90 | ≤ 0.06 µg/mL
CCOC(=O)C1(CC=C(C)C)Oc2cc(F)ccc2N(CC=C(C)C)C1=O (centres unmarked) | Echinochloa crus-galli | fresh weight, greenhouse postemergence | – | postemergence, 150 g ai/ha, 21 days | – | inhibition | 53.78 ± 0.4%
[2H]C([2H])(c1cc(F)c(F)cc1F)n1c(=O)n(Cc2ncn(C)n2)c(=O)[nH]/c1=N\c1cc2cn(C)nc2cc1Cl | canine coronavirus | viral replication, qRT-PCR | CRFK | 48 h | – | IC50 | 53.4 µM
[O-][N+]1=C(c2ccccc2)C2=NCCN2c2ccccc21 | Parabacteroides distasonis and Bacteroides spp. | bacterial growth | – | – | – | MIC50 | ≤ 0.06 µg/mL
COC(=O)C1=CO[C@@H](C)[C@@H]2Cn3ccc4c5ccccc5nc-4c3C[C@H]12 | Plasmodium falciparum | growth, [3H]-hypoxanthine uptake | FCR3 | 48 h | – | IC50 | 7.02 ± 3.17 µM
C=CCN1C(=O)C(CC=C)(C(=O)OCC)Oc2cc(F)ccc21 (centres unmarked) | Echinochloa crus-galli | – | greenhouse | postemergence, 150 g ai/ha, 21 days | – | fresh weight inhibition | 48.3 ± 2.46%
C[C@H](NC(=O)[C@@H](O)c1cc(F)cc(F)c1)C(=O)N[C@@H]1C(=O)N(C)c2ccccc2-c2ccccc21 | dengue virus type 2 | viral replication, Renilla luciferase reporter virus | MEF | 48 h | – | EC50 | 0.0032 µM
CN[C@H](CC(C)C)C(=O)N[C@H]1C(=O)N[C@@H](CC(N)=O)C(=O)N[C@H]2C(=N)N[C@H]3C(=O)N[C@H](C(=O)N[C@H](C(=O)O)c4cc(O)cc(O)c4-c4cc3ccc4O)[C@H](O)c3ccc(c(Cl)c3)Oc3cc2cc(c3O[C@@H]2O[C@H](CO)[C@@H](O)[C@H](O)[C@H]2O[C@H]2C[C@](C)(N)[C@H](O)[C@H](C)O2)Oc2ccc(cc2Cl)[C@H]1O | Enterococcus faecium | – | ATCC BAA-2317 VanA | 10 µg/mL | reference: no antibiotic | accumulation increase | 4 to 6 fold
CCOC(=O)C1(Cc2ccc(C#N)cc2F)Oc2cc(F)ccc2N(Cc2ccc(C#N)cc2F)C1=O (centres unmarked) | Echinochloa crus-galli | fresh weight, greenhouse postemergence | – | postemergence, 150 g ai/ha, 21 days | – | inhibition | 39.8 ± 1.92%
COc1cc(C(SC(C)C)SC(C)C)ccc1OCCNS(=O)(=O)c1ccccc1C(F)(F)F | tobacco mosaic virus | curative activity | in vivo plant | – | – | EC50 | > 2500 µg/mL
CN(C(=O)c1ccn2ncc(-c3ccc(C(N)=O)cc3)c2c1)c1ccc(C#N)cn1 | Cryptosporidium parvum | – | UGA1 Nluc, IFN-gamma knockout C57BL/6 mice, faeces | oral, 10 mg/kg daily, 240 h post infection, treatment days 3-9 | higher means more parasites | faecal Nluc luminescence | 8 a.u. and 67 a.u. and 35 a.u. and 13 a.u. and 17 a.u.
CCCCSC(SCCCC)c1ccc(OCCNS(=O)(=O)c2ccc(F)cc2)c(OC)c1 | tobacco mosaic virus | inactivation activity | in vivo plant | – | – | EC50 | 48.1 ± 2 µg/mL
CC[C@H](C)CCCCC(=O)N[C@@H](CCN)C(=O)N[C@H](C(=O)N[C@@H](CCN)C(=O)N[C@H]1CCNC(=O)[C@H]([C@@H](C)O)NC(=O)[C@H](CCN)NC(=O)[C@H](CCN)NC(=O)[C@H](CC(C)C)NC(=O)[C@@H](CC(C)C)NC(=O)[C@H](CCN)NC1=O)[C@@H](C)O | Escherichia coli | daily serial passaging | ATCC 8739 | highest sub-MIC, 11 days | reference: initial MIC | MIC fold change | 1.47
CC(O)CN(CC(C)O)CC(C)O.O=C(O)C(Cl)Cl (centres unmarked) | Eclipta prostrata | – | – | 15 mg/mL, 21 days, pre-emergence, greenhouse | – | herbicidal inhibition | 0%
Cc1cc(N2CCC(C#N)(C3(C)CC3)C2=O)cc(C(=O)NCc2cc(F)cc(-c3cnn(C)c3)c2)n1 (racemic) | Plasmodium falciparum | parasite growth, [3H]hypoxanthine incorporation | Dd2 Pfeef2 mutant | – | – | IC50 | 0.016 µM
CC(C)SC(SC(C)C)c1ccc(OCCNS(=O)(=O)c2cccc(Br)c2)c(Cl)c1 | Tobacco mosaic virus | protective activity | plant in vivo | – | – | EC50 | 330 ± 3.8 µg/mL
CCOC(=O)C1(Cc2ccccc2C#N)Oc2cc(F)ccc2N(Cc2ccccc2C#N)C1=O (centres unmarked) | Echinochloa crus-galli | fresh weight, greenhouse postemergence | – | postemergence, 150 g ai/ha, 21 days | – | inhibition | 58.4 ± 2.19%
CCCSC(SCCC)c1ccc(OCCNS(=O)(=O)c2ccc(Cl)cc2)c(OC)c1 | Tobacco mosaic virus | inactivation activity | plant in vivo | – | – | EC50 | 164.5 ± 1.4 µg/mL
OB(O)c1ccc(C(F)(F)F)s1 | Staphylococcus aureus | OD600 | USA300 fphE::Tn transposon mutant | 50 µM | reference: wild type | growth | 59.4% and 59.3% and 64.2% and 48.8% and 108% and 57%
COc1cc(C(SC(C)C)SC(C)C)ccc1OCCNS(=O)(=O)c1ccc(Cl)cc1 | Tobacco mosaic virus | curative activity | plant in vivo | – | – | EC50 | 271 ± 3.7 µg/mL
Cc1cc(C(=O)Nc2nc3cccc(C)c3n2[C@H]2CCCCN(C(=O)/C=C/CN(C)C)C2)ccn1 | Trypanosoma brucei brucei | – | 2T1 wild type | 0.00114 µM | – | survival | 93.4% and 77.5% and 91.4% and 86.6% and 99.5% and 101%
COc1cc(C(SC(C)C)SC(C)C)ccc1OCCNS(=O)(=O)c1ccc(F)c(Cl)c1 | Tobacco mosaic virus | inactivation activity | plant in vivo | – | – | EC50 | 1066 ± 4.3 µg/mL
CNCCO.O=C(O)C(Cl)Cl | Eclipta prostrata | – | – | 15 mg/mL, 21 days, pre-emergence, greenhouse | – | herbicidal inhibition | 0%
Cc1ccc(S(=O)(=O)NCCOc2ccc(C(SC(C)C)SC(C)C)cc2)cc1 | Tobacco mosaic virus | inactivation activity | plant in vivo | – | – | EC50 | 521.9 ± 0.9 µg/mL
COc1ccc(C2=[N+]([O-])c3ccccc3N3CCN=C23)cc1 | Parabacteroides distasonis and Bacteroides spp. | bacterial growth | – | – | – | MIC90 | ≤ 0.06 µg/mL
CCCSC(SCCC)c1ccc(OCCNS(=O)(=O)c2ccc(C)cc2)cc1 | Tobacco mosaic virus | inactivation activity | plant in vivo | – | – | EC50 | 612.6 ± 0.7 µg/mL
CCOC(=O)C1(Cc2ccccc2)Oc2ccccc2N(Cc2ccccc2)C1=O (centres unmarked) | Eclipta prostrata | fresh weight, greenhouse postemergence | – | postemergence, 150 g ai/ha, 21 days | – | inhibition | 56.2 ± 3.84%

For quick reference, copied from above:
SMILES | organism | assay | test system | setting | how to read | endpoint | value
Cc1cc(C(=O)Nc2nc3cccc(C)c3n2[C@H]2CCCCN(C(=O)/C=C/CN(C)C)C2)ccn1 | Trypanosoma brucei brucei | – | 2T1 wild type | 0.00114 µM | – | survival | 93.4% and 77.5% and 91.4% and 86.6% and 99.5% and 101%
COc1cc(C(SC(C)C)SC(C)C)ccc1OCCNS(=O)(=O)c1ccc(F)c(Cl)c1 | Tobacco mosaic virus | inactivation activity | plant in vivo | – | – | EC50 | 1066 ± 4.3 µg/mL
